Experimental data of several laboratories.
“And” joins repeats or separate records; there may be more than shown. ± gives the spread as reported.

SMILES	cell line	test	test system	setting	how to read	quantity	result
O=C(C[C@@H](C(F)F)n1ccc(F)n1)N1CCC(O)(Cn2cnc3c(cnn3-c3ccc(F)cc3)c2=O)CC1	CHP-212 resistant subline R3	annexin V/PI flow cytometry	–	1 µM, 48 h	–	viable cells	90.4% and 82.9% and 84.5%
NCCOc1cc(NC(=O)c2cc(OCc3c[nH]nn3)cc(C(=O)Nc3cc(OCCN)c4ccccc4n3)n2)nc2ccccc12	HT-1080	cell viability, CellTiter-Glo	–	72 h	relative to: IC50 HT-1080 over WI-38	selectivity ratio	3
CCOC(=O)C1=C(c2ccccc2)NC2=C(C(=O)CC(c3ccc(OC)c(OC)c3)C2)C1c1ccccc1Cl (mixture of isomers)	J774.A1	cytotoxicity	–	–	–	EC50	> 20 µM
COc1cnc2cccc(N3CCc4c(cc(Cn5ccnc5C)cc4-c4cn(C)nc4C(F)(F)F)C3=O)c2c1	SU-DHL-8	cell growth, inhibitor	–	120 h	–	EC50	0.287 µM
C=Cc1c2[n-]c(c1C)/C=c1\[n-]/c(c(C)c1C=C)=C\c1[n-]c(c(CCC(=O)O)c1C)/C=c1\[n-]c(c(C)c1CCC(=O)O)=C2.[Sn+4]	SH-SY5Y	RNA-seq, refers to: FAM30A mRNA	–	5 µM, 5 h	relative to: untreated cells	fold change	3.2
C[C@@H]1CN(C(=O)c2ccc(NC(=O)c3cc(O[C@H](C)c4c(Cl)ccc(F)c4Cl)c(N)nn3)cc2)C[C@H](C)N1	Aska-SS (ALK exon 2-17 deletion)	cell viability	–	–	–	Emax	80.8%
C[C@H]1CN(C2COC2)CCN1c1ccc(Nc2cc(-c3ccnc(N4CCn5c(cc6c5CC(C)(C)C6)C4=O)c3CO)cn(C)c2=O)nc1	TMD8	calcium flux, FLIPR	–	1 h preincubation, with: anti-IgM	–	maximum inhibition	81.1%
CN(C)c1ncnc2c1ncn2[C@@H]1O[C@H](CO)[C@@H](O)[C@H]1O	mock-transfected cells	TGFα shedding, agonist	–	100 µM	relative to: unstimulated vehicle control	AP-TGFα release	20.3% and 20.2% and 21.3%
O=C(COP(=O)(O)O)[C@@H](O)[C@H](O)[C@H](O)COP(=O)(O)O	HepG2 control sgRNA	CCK-8	–	concentration not given	relative to: untreated wild type	cell proliferation	180% and 191% and 199%
O=C(Nc1cc(OCCN2CCCC2)c2ccccc2n1)c1cc(OCCN2CCCC2)cc(C(=O)Nc2cc(OCCN3CCCC3)c3ccccc3n2)n1	HT-1080	cell viability, CellTiter-Glo	–	72 h	relative to: IC50 HT-1080 over WI-38	selectivity ratio	1
COC1=CC(=O)C=C(OC)C1=O	MDA-MB-231 BAX/BAK siRNA knockdown	cell viability, CellTiter-Glo	–	–	direction not given	Z score	-0.963
Cc1nn(-c2nc3c(F)cc(F)cc3s2)c(O)c1C(c1ccccc1C(F)(F)F)c1c(C)nn(-c2nc3c(F)cc(F)cc3s2)c1O	THP1-Dual	IFN luciferase reporter	–	10 µM, with: HT-DNA	–	inhibition	-10.3% and 11.6% and 12.7% and 10.5% and 10.3%
CCCCc1nc(Cl)c(CO)n1Cc1ccc(-c2ccccc2-c2nn[nH]n2)cc1	human PBMC	RNA-seq, refers to: CD300LB mRNA	–	10 µg/mL, 24 h	relative to: untreated control	log2 fold change	-1.62
CC(C)=CCNc1ncnc2c1ncn2[C@@H]1O[C@H](CO)[C@@H](O)[C@H]1O	mock-transfected cells	TGFα shedding, agonist	–	100 nM	relative to: unstimulated vehicle control	AP-TGFα release	-0.56% and 0.37% and 0.9%
CCCCC[C@H](O)/C=C/[C@H]1C(=O)C[C@H](O)[C@@H]1C/C=C\CCCC(=O)O	HEK293-A2AR cells, SLCO2A1 knockout	HTRF cAMP	–	500 µM	–	HTRF cAMP signal	330 a.u. and 321 a.u. and 328 a.u.
Cc1nn(-c2nc3c(F)cc(F)cc3s2)c(O)c1C(c1cccc(C(F)(F)F)c1)c1c(C)nn(-c2nc3c(F)cc(F)cc3s2)c1O	THP1-Dual	IFN luciferase reporter	–	1.25 µM, with: HT-DNA	–	inhibition	-2.66% and -2.18% and -8.54% and 4.36% and -6.3% and -8.37%
Clc1nc(NCc2ccco2)c2[nH]cnc2n1	FD iPSC-derived cardiomyocytes	alternative splicing, RNA-seq, refers to: ENOSF1 exon 697239-697355	–	unit not given	relative to: DMSO minus compound	ΔPSI	-0.202
Cc1cnc(NC2CCOCC2)nc1-n1cnc(C(=O)NC(CN)c2cc(F)cc(Cl)c2)c1 (stereo not shown)	MINO	flow cytometry	–	1 µM, 72 h	–	G2 phase cells	4%
CCOC(=O)C1=C(C)NC2=C(C(=O)CC(c3ccc(OC)c(OC)c3)C2)C1c1ccc(Cl)cc1 (mixture of isomers)	J774.A1	cytotoxicity	–	–	–	EC50	> 20 µM
Nc1ncnc2c1ncn2[C@@H]1O[C@H](CO)[C@@H](O)[C@H]1O	activated human T cells	refers to: adenine	–	30 µM	relative to: DMSO	log2 fold change	0.8 and 0.761
CSc1cc(Oc2ccnc3[nH]c(=O)cnc23)ccc1NC(=O)Nc1cc(C(C)(C)C)nn1-c1ccccc1	patient-derived cell clone	RPPA, refers to: phospho ribosomal protein S6	human	1 µM, 4 h	relative to: DMSO	phospho-S6 ratio	0.4
CCc1cnc(N2CCC(c3nc(COc4ccc(-n5cnnn5)cc4)cs3)CC2)nc1	HEK293T	RNA-seq, refers to: CBX4 mRNA	–	10 µM, 6 h	relative to: vehicle	log2 fold change	-0.0979
CCOC(=O)C1=C(C)NC2=C(C(=O)CC(c3ccc(OC)c(OC)c3)C2)C1c1ccccc1Cl (mixture of isomers)	J774.A1	cytotoxicity	–	–	–	EC50	> 20 µM
CCCCCCOC(=O)[C@]1(O)C[C@@H]2O[C@@]1(C)n1c3ccccc3c3c4c(c5c6ccccc6n2c5c31)C(=O)NC4	SK-OV-3	ATP	–	0.01 µM, 4 days, 3D U-bottom low-attachment	relative to: untreated	relative cell number	108%
CO[C@@H](C)Cn1c(=O)n(C)c2cnc3ccc(-c4cncc(C(C)(C)O)c4)cc3c21	HEK293T (G4C2)66-No-ATG-GFP reporter	RAN translation of r(G4C2)exp, fluorescence reporter	–	concentration not given	–	inhibition	44%

SMILES	cell line	test	test system	setting	how to read	quantity	result
CCOC(=O)C1=C(C)NC2=C(C(=O)OC(c3ccc(OC)cc3)C2)C1c1ccccc1Cl (stereo not shown)	J774.A1	cytotoxicity	–	–	–	EC50	> 20 µM
Cn1cc(-c2ccc(-c3cncc(Cl)c3N3CCC4(CCNC4=O)CC3)cc2)cn1	COLO 205	gene expression, microarray, refers to: CDC45 mRNA	–	concentration not given, 2 h	relative to: untreated cells	log2 fold change	-2.43
C=CC(=O)N1CCC[C@@H](c2ccc(C(N)=O)c3[nH]ccc23)C1	TMD8	calcium flux, FLIPR	–	1 h preincubation, with: anti-IgM	–	maximum inhibition	24.8%
CC(C)NCC(O)c1ccc(O)c(O)c1 (stereo not shown)	mouse ventricular cardiomyocytes	–	–	dose not given, 0.223 s	–	sarcomere length	1.78 µm
CC(C)C[C@@H](C=O)NC(=O)[C@H](CC(C)C)NC(=O)[C@H](CC(C)C)NC(=O)OCc1ccccc1	BRD4-HiBiT cells	BRD4 degradation rescue, inhibitor	–	2 h, with: dBET6 500 nM	–	EC50	0.308 µM
COc1ccc(C(=O)COc2ccc(N3C(=O)[C@@H]4[C@@H]5C=C[C@@H]([C@H]6C[C@@H]56)[C@@H]4C3=O)cc2)cc1	Mut6	–	–	concentration not given, 24 h, with: 1 µM d6-S-EPL	–	d6-EPC from d6-EPL production	no effect
Cn1cc(Nc2nccc(-c3ccc4c(c3)CN(C3COC3)CC[C@H]4NC(=O)c3cn(C(C)(C)C)nn3)n2)cn1	human B cells	–	–	100 nM, 64 h, non-stimulation-regulated genes, with: CpG ODN2006	–	number of upregulated genes	266
CC/C(=N\NC(=O)NCc1cccc(O)c1)c1ccc(O)c(C)c1O	SK-OV-3	gene expression, microarray, refers to: MMP13	–	10 µM, 24 h	relative to: DMSO	log ratio	-4.98
O=P(O)(O)C(O)(Cn1ccnc1)P(=O)(O)O	hFOB 1.19	AlamarBlue	–	7.5 µM, 24 h	relative to: control	viability	101 ± 1%
O=C(/C=C/C=C/C=C/C1CCCCC1)NC1=C[C@@](O)(/C=C/C=C/C=C/C(=O)NC2=C(O)CCC2=O)[C@@H]2O[C@@H]2C1=O	UMUC3	cell growth, CellTiter-Glo	–	78 h	–	GI50	17.7 µM
N#C/C(=C\c1c[nH]nc1-c1ccc2ccccc2c1)C(=O)O	LX-2	qPCR, refers to: PAI1	–	10 µM, hepatic stellate cell activation, with: TGFβ	relative to: untreated	mRNA level	decreased
Nc1cccc2c1C(=O)N(C1CCC(=O)NC1=O)C2=O (stereo not shown)	bone marrow CD138+ myeloma cells	XTT	–	1.8 µM, phenol red-free RPMI	–	viability	8%
COC[C@H](NC(=O)c1cnc(C)s1)C(=O)N[C@@H](COC)C(=O)N[C@@H](Cc1ccccc1)C(=O)[C@@]1(C)CO1	BRD4-HiBiT cells	BRD4 degradation rescue, inhibitor	–	2 h, with: dBET6 500 nM	–	EC50	9.46 µM
COc1cccc2c1C(=O)c1c(O)c3c(c(O)c1C2=O)C[C@@](O)(C(=O)CO)C[C@@H]3O[C@H]1C[C@H](N)[C@H](O)[C@H](C)O1	HepG2	refers to: glutathione	–	6 h, distribution mode 1	–	point of departure	0.00437 µM
CC(=O)Nc1cc(Oc2ccc3c(c2)CCN3C(=O)Nc2ccc(CN3CCN(C)CC3)c(C(F)(F)F)c2)ncn1	MHHCALL4 B-ALL cells	CellTiter-Glo	–	concentration not given, 3 d	–	cell proliferation	inhibited
COc1ccc(-n2nc(C(C)=O)s/c2=N\N=C(/C)c2ccc(NC(=O)c3ccc(Cl)cc3)cc2)cc1	HepG2	–	–	5 µM	–	toxicity	93.9%
Cc1cc(Nc2ncc(Cl)c(Nc3ccccc3S(=O)(=O)C(C)C)n2)c(OC(C)C)cc1C1CCNCC1	CLB-BAR	phosphoproteomics LC-MS/MS, refers to: FAM111B phosphorylation	–	200 nM, 60 min	relative to: untreated	log2 fold change	-2.05
C[C@H](Nc1ccc2c(c1)OCCn1cc(N3C(=O)OC[C@H]3C(F)F)nc1-2)C(N)=O	AGS	CellTiter-Glo	–	120 h	–	Hill coefficient	1.14
CSc1nc(-c2ccc(Cl)cc2)c2c(NC(=O)c3ccccc3)nnc-2[nH]1	MDA-MB-435	SRB	–	10 µM, NCI60 single-dose screen	relative to: untreated	cell growth	103%
NS(=O)(=O)OC[C@H]1C[C@@H](Nc2ccnc3cc(-c4cccc(SC(F)(F)F)c4)nn23)[C@H](O)[C@@H]1O	BRD4-HiBiT cells	BRD4 degradation rescue, inhibitor	–	4 h, with: dBET6 500 nM	–	EC50	0.38 µM
CCn1cc(-c2cc(Cn3ccnc3)cc3c2CCN([C@H](c2cc(OC)ccn2)C2CC2)C3=O)c(C(F)(F)F)n1	SW837	cell growth, inhibitor	–	120 h	–	EC50	> 30 µM
Cc1nn(-c2nc3ccccc3[nH]2)c(O)c1C(c1ccccn1)c1c(C)nn(-c2nc3ccccc3[nH]2)c1O	THP1-Dual	IFN reporter gene, luciferase reporter	–	25 µM, with: HT-DNA	–	inhibition	45.8% and 49.9% and 48.7%
CCn1cc(-c2cc(Cn3ccoc3=N)cc3c2CCN([C@@H](C)c2cc(OC)ccn2)C3=O)c(C(F)(F)F)n1	HLC1	cell growth, inhibitor	–	120 h	–	EC50	0.0631 µM
O=C(CCCCCCC(=O)Nc1ccccc1)NO	MDA-MB-231 BAX/BAK siRNA knockdown	CellTiter-Glo	–	concentration not given	relative to: normalised luminescence	viability	21.2% and 18.7%

A few entries again:
SMILES	cell line	test	test system	setting	how to read	quantity	result
CC(C)=CCNc1ncnc2c1ncn2[C@@H]1O[C@H](CO)[C@@H](O)[C@H]1O	mock-transfected cells	TGFα shedding, agonist	–	100 nM	relative to: unstimulated vehicle control	AP-TGFα release	-0.56% and 0.37% and 0.9%
CCCCC[C@H](O)/C=C/[C@H]1C(=O)C[C@H](O)[C@@H]1C/C=C\CCCC(=O)O	HEK293-A2AR cells, SLCO2A1 knockout	HTRF cAMP	–	500 µM	–	HTRF cAMP signal	330 a.u. and 321 a.u. and 328 a.u.
Cc1nn(-c2nc3c(F)cc(F)cc3s2)c(O)c1C(c1cccc(C(F)(F)F)c1)c1c(C)nn(-c2nc3c(F)cc(F)cc3s2)c1O	THP1-Dual	IFN luciferase reporter	–	1.25 µM, with: HT-DNA	–	inhibition	-2.66% and -2.18% and -8.54% and 4.36% and -6.3% and -8.37%
Clc1nc(NCc2ccco2)c2[nH]cnc2n1	FD iPSC-derived cardiomyocytes	alternative splicing, RNA-seq, refers to: ENOSF1 exon 697239-697355	–	unit not given	relative to: DMSO minus compound	ΔPSI	-0.202
Cc1cnc(NC2CCOCC2)nc1-n1cnc(C(=O)NC(CN)c2cc(F)cc(Cl)c2)c1 (stereo not shown)	MINO	flow cytometry	–	1 µM, 72 h	–	G2 phase cells	4%
CCOC(=O)C1=C(C)NC2=C(C(=O)CC(c3ccc(OC)c(OC)c3)C2)C1c1ccc(Cl)cc1 (mixture of isomers)	J774.A1	cytotoxicity	–	–	–	EC50	> 20 µM
Nc1ncnc2c1ncn2[C@@H]1O[C@H](CO)[C@@H](O)[C@H]1O	activated human T cells	refers to: adenine	–	30 µM	relative to: DMSO	log2 fold change	0.8 and 0.761
